Measured values pooled from the literature.
A part holds a random share of what one study measured.

Sample 1
Target: Ras GTPase-activating protein-binding protein 1, RRM domain (G3BP1, Homo sapiens, UniProt Q13283)
Chain of UniProt Q13283 (whole entry, looked up): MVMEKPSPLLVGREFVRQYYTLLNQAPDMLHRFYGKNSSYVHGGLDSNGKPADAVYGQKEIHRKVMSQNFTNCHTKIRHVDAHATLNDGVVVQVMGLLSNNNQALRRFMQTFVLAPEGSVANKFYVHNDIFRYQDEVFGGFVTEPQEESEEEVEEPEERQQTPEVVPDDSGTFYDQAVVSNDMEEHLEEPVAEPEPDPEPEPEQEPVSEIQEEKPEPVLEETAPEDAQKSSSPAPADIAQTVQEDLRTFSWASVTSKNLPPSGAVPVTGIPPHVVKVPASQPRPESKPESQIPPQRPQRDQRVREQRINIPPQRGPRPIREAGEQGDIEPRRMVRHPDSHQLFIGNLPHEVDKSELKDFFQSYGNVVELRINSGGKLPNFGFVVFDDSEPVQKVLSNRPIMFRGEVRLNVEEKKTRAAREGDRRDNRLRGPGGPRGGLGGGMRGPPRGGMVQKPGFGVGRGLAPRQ
Method: RNA Bind-n-Seq
Molecule type: RNA
Medium: in vitro
Tested at: 1 µM
Notes: whole 134-nt RNA, ends assumed
With: 150 mM KCl
Relative to: input library
Direction: higher = stronger binding
Constant ends, left off below: GGGAGUUCUACAGUCCGACGAUC … UGGAAUUCUCGGGUGUCAAGG
Strand | log2 enrichment
CAAGUCCUGUGCUACACAUCGUAUGUACCGAAUCGGGGAGGGGUUUGGGGUGGGGAAAGUAUUAUGUUACGCCGUUCGGAUCUGCACUUC | 0.929
CUGUGCUACACAUCGUAUGUACCGAAUCGGGGAAAGGGGUUUUUUUGGGGUUUUUUUGGGGAAAGUAUUAUGUUACGCCGUUCGGAUCUG | 0.614
UGGGAGGUGGAUUUAGUUUAUUUUUUUAGCUCAUUUCCAGGGGUGGGAAUUUUUUUUUAAUAUGUGUCAUGAAUAAAGUUGUUUUUGAAA | 1.57
UCCUCAAGUCCUGUGCUACACAUCGUAUGUACCGAAUCGGCGGCGGCGGGGAAAGUAUUAUGUUACGCCGUUCGGAUCUGCACUUCCAGC | -0.215
ACCAUGCAGGUGGGCAUCUUUGGGAAGUGGGGCAAGGGGGGGAUAGGGAGGGGGGUAACACUUUGGGAACAGGUGGUCCCAGGUUGUUUC | 1.06
GCAGGAAGUAAAAACAAAUGGAAAUGCUUCGGAUAGUGGCAGGGGUGGGGGUUGCUAAGGAAAGGGUGGGAUGGAAAUGGGUAAAGAGUU | 1.17
CCAUAGACCCCUUUCUUCUCCCCUUCCCCACGGUAGGAACAUAGCGUGUUUAUAUUUUAUGGCCAAACUAUUUUGAAUUUUGUUGUCCGG | -0.212
CCUGUGCUACACAUCGUAUGUACCGAAUCGGGGAAAAAAAGGGGUUUUUGGGGAAAGGGGAAAGUAUUAUGUUACGCCGUUCGGAUCUGC | 0.763
UCAAGUCCUGUGCUACACAUCGUAUGUACCGAAUCGGAAAGGGGAAAGGGAAAGGAAAGUAUUAUGUUACGCCGUUCGGAUCUGCACUUC | -0.197

Sample 2
Target: Histone acetyltransferase KAT6A, winged helix 1, GST fusion (KAT6A, Homo sapiens, UniProt Q92794, residues 1-85)
Method: protein binding microarray
Molecule type: double-stranded DNA, one strand shown
Medium: in vitro
Tested at: not given
Notes: 8-mer, flanks averaged, mean of 2 arrays, mostly near background
Relative to: not given
Direction: higher = stronger binding
Construct (chain): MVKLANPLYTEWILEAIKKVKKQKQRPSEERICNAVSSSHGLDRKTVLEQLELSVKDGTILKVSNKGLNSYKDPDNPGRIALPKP
Strand | E-score
TGACCACA | -0.278
ACCCCCTC | -0.194
CTAAGCGC | 0.325
AGGCCGAA | -0.015
CCAGATGA | -0.0982
ACTTTACA | -0.0106
GATCAATA | -0.237
CAGCTAGG | -0.255
CCACTATA | -0.251
AGTTTACG | 0.0666
CAGTTATC | -0.11
ACGCCTAT | 0.0371
CATGTTGC | -0.0148
ACTTCTCG | -0.121
AAGGCGCT | 0.28
AGGTGCGC | 0.246
CATATCGG | 0.0989

Sample 3
Target: Sal-like protein 4, full length isoform B (SALL4, Homo sapiens, UniProt Q9UJQ4-2, residues 1-616)
Method: universal PBM
Molecule type: double-stranded DNA, one strand shown
Medium: in vitro
Tested at: not given
Notes: 8-mer, flanks averaged, mean of replicates
Direction: higher = stronger binding
Target sequence (chain): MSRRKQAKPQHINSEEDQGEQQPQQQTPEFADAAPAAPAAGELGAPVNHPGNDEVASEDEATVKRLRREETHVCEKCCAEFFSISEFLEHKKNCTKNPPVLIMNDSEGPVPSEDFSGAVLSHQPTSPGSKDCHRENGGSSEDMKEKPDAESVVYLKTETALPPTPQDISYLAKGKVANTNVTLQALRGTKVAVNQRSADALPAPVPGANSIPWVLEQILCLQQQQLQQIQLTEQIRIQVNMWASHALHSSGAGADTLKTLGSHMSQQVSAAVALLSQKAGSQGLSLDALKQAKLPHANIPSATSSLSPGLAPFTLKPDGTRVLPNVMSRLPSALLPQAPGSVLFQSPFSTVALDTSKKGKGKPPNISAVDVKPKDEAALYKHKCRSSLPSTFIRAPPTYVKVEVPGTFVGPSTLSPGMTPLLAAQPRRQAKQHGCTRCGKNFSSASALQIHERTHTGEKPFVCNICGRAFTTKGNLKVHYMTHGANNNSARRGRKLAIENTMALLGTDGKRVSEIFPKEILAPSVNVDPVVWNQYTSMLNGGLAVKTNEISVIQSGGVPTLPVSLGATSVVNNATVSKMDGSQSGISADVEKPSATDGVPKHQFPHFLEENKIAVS
Strand | E-score
ATCGCCGG | -0.28
CTATAACA | 0.287
CGTTTATA | 0.307
ATAGTCTA | 0.0933
CTCCGTCC | -0.295
CACGGTGG | -0.321
CGTTTGAG | -0.0759
AAACGTTA | 0.246
AGCATACG | 0.0516
GAGCCTAA | -0.0435
CGGTCATA | 0.161
CAATACTG | 0.0963
AGCCCAGG | -0.34
CATGACAC | 0.187
AACCAATC | -0.0377
ATTAGTCG | 0.107
AGTTTGAC | 0.0241
ATAGGGAT | 0.122
ATCGAGCC | -0.102
AGTGAGTA | 0.165
TACTGCCA | 0.0493
AAGGAATT | 0.127
AGCCAGCA | -0.191

Sample 4
Target: RING finger protein unkempt homolog, zinc fingers 1-6, GST-SBP tag (UNK, Homo sapiens, UniProt Q9C0B0, residues 30-357)
Method: RNA Bind-n-Seq
Molecule type: RNA
Medium: in vitro
Tested at: not given
Notes: RNA with constant flanks, ends assumed
Relative to: input RNA pool
Direction: higher = stronger binding
Constant ends, left off below: GGGAGUUCUACAGUCCGACGAUC … CAACAGAGGAUUGAGCAUCA
Residues (chain): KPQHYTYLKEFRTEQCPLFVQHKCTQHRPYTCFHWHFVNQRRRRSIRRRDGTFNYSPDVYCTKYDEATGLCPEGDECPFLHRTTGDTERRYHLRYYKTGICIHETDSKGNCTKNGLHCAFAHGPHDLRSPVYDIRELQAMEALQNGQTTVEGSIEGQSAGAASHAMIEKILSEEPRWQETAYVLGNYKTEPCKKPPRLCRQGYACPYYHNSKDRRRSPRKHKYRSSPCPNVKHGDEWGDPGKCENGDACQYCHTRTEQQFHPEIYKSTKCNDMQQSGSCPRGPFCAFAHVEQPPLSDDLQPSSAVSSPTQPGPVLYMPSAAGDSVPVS
Strand | bound/input enrichment
AAUUGAACAAAAAUGUUUCCACUGGCUUUUGCCUGUAAGAAAAAAAAUGUACCCGAGCACACCGAGCUUUUUAAUAGCACUAACCAAUGCCUUUUUAGAUGUAUUUUUGAUGUAUAUAUC | 48.1 ratio
UGCCCUUCCAGUAAUAGUUAAUUUUGAAUAAUUAUGUAUUGUCUGAAAAGCAAUGAGUGCCCGUUUUUGUUUUCUUUGUUUAAAAAAAAAAACAAAAAUCCCCACAAACGUUUGUUGUUU | 3.66 ratio
CAGAACCUGCCUUCAGGAUCGUCACGGGUUGGAGCCAUUAAACUUACCUACAUUUCAAAGGUCCGCGAUGCAACUAAGUUAAGGCCAAAGGCAGAGUUUUGUUUUGUUAUGAAUGCAGGA | 0.163 ratio
AGAAAUCAAUGUAAUUUUAAACCUCAGAUGGAUCUUGAAGUUAAAGAAAUUUCUCCCGACCGUUAUAAUGCGCAGUUGGUGCAAUUAGAAGCUAUGCUAAGAAAUAAGGAAUUAAAACUU | 2.83 ratio
CCAGAUGGGACUAGCAGAUUUACCUGCAAAGGAAAGUCUGUUUUUCACUUCAUGGGGACCCGCACAUUUUCCGAGUACACAGUUGUGGCUGACAUCUCUGUUGCUAAAAUCGAUCCUUCG | 0.12 ratio
CGUGCUUAUGCUCUUCUAUGAGAGAGAUGAAUUGGGGAGAAUUGUCUCCAUUUUACCGAUCCGUUUCUUUCUAAAUUAUGACCAAAAAUAUUUUGCUAUUUCUUUCUUUGUAUAUGGACA | 0.537 ratio
CCUGAAGUGCGACACCACUGUCCCAAUACUCCUAUCAUCCUCGUGGGGACGAAGCUUGAUCUCCGGGAUGAUAAGGACACCAUUGAGAAGCUGAAGGAGAAGAAGCUGACUCCCAUCACC | 0.05 ratio
GGAGGGUAUGGAGGCUAUGAUGACUAUGGUGGCUAUAAUGAUGGAUAUGGCUUUGGGUCUGACCGAUUUGGAAGAGACCUCAAUUACUGUUUUUCAGGAAUGUCUGAUCAUAGAUACGGA | 0.36 ratio

Repeated from above (sample 3):
Strand | E-score
AAACGTTA | 0.246
CTATAACA | 0.287
ATTAGTCG | 0.107
ATAGGGAT | 0.122
ATAGTCTA | 0.0933
ATCGCCGG | -0.28
AGCCAGCA | -0.191
CTCCGTCC | -0.295
AGTTTGAC | 0.0241
